Measurements gathered from unrelated publications.
A part holds a random share of what one study measured. Values joined by “and” are separate records of one study, mostly repeats; a detail may differ.
UniProt Q16566, sequence (whole entry, looked up): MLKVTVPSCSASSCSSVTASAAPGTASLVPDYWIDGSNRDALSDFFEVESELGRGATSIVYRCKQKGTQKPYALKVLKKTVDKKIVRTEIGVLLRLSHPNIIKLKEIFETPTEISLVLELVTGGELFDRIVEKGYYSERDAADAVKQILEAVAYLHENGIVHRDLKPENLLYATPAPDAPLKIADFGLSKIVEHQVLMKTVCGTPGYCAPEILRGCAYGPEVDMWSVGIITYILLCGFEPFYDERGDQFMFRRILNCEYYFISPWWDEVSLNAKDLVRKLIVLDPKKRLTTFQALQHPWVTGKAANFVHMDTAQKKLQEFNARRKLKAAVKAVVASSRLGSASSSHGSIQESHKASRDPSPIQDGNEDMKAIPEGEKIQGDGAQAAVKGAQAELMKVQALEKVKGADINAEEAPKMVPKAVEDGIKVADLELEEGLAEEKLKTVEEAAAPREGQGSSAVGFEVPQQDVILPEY
UniProt Q8IW41, sequence (whole entry, looked up): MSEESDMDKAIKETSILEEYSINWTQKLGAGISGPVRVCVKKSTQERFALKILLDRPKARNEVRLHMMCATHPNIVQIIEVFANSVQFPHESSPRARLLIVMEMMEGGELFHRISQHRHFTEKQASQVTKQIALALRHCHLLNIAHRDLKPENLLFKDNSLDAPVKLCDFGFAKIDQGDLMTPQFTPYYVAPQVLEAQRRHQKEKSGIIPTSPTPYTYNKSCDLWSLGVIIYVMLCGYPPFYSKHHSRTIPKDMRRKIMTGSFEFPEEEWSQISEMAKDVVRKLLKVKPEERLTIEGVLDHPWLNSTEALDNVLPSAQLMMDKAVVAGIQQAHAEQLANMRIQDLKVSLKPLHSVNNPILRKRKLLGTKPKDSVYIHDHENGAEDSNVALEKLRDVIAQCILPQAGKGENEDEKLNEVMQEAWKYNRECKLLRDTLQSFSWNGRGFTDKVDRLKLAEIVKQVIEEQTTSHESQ
UniProt P06493, sequence (whole entry, looked up): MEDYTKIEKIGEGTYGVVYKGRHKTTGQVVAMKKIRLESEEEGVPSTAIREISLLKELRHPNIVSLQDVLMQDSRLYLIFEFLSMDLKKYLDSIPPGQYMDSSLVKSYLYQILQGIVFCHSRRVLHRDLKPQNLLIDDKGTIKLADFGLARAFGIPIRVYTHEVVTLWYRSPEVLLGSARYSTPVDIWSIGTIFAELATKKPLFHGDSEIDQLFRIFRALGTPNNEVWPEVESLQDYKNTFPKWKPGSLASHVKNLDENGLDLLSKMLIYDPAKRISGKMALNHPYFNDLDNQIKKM
UniProt P06241, sequence (whole entry, looked up): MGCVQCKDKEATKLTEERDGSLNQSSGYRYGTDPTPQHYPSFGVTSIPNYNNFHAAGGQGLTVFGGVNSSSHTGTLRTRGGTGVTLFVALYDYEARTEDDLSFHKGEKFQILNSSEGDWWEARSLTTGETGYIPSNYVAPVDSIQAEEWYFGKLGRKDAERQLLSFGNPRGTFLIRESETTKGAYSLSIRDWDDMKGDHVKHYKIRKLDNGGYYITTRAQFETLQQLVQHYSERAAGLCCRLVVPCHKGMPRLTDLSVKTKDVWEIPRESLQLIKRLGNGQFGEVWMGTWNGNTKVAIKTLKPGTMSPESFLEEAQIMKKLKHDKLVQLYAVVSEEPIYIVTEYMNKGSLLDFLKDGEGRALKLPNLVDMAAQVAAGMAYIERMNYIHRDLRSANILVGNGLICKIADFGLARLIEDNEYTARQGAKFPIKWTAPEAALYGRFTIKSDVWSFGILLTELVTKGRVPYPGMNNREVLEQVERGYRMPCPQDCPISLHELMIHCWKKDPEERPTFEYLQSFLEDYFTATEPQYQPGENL
UniProt Q9HAZ1, sequence (whole entry, looked up): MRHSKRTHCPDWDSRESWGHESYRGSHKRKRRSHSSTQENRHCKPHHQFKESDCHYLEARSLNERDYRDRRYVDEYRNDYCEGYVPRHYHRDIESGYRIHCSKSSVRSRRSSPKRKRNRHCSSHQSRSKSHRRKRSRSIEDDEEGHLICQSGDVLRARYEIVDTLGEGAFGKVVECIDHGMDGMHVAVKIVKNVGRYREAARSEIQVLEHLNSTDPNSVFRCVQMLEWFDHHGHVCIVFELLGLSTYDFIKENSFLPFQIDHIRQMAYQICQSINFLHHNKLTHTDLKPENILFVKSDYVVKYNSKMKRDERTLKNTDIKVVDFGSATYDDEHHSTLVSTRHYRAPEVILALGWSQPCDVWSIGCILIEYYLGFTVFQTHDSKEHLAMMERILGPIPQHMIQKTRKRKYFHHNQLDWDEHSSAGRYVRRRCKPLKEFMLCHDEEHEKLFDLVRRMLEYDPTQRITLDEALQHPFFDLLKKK
UniProt Q86UE8, sequence (whole entry, looked up): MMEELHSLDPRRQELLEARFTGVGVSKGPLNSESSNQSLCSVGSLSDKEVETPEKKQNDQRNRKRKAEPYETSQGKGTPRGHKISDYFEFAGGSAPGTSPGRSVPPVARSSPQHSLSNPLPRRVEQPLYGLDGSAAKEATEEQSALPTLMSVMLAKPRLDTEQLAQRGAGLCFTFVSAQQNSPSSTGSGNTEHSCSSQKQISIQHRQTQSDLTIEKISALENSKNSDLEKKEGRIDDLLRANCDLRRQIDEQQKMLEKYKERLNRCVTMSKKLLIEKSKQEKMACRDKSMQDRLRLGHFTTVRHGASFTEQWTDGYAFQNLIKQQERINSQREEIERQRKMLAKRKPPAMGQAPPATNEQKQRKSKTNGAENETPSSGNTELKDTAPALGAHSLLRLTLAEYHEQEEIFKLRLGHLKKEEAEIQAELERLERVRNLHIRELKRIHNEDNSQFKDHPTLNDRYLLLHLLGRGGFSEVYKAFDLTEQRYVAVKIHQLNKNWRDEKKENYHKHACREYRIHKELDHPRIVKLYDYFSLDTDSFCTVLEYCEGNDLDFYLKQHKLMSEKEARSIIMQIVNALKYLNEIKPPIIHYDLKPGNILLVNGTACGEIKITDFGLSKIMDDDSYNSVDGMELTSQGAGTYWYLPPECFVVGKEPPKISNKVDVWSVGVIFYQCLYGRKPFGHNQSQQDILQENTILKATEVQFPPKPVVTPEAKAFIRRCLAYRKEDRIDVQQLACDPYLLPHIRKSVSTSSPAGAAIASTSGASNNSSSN
UniProt P37023, sequence (whole entry, looked up): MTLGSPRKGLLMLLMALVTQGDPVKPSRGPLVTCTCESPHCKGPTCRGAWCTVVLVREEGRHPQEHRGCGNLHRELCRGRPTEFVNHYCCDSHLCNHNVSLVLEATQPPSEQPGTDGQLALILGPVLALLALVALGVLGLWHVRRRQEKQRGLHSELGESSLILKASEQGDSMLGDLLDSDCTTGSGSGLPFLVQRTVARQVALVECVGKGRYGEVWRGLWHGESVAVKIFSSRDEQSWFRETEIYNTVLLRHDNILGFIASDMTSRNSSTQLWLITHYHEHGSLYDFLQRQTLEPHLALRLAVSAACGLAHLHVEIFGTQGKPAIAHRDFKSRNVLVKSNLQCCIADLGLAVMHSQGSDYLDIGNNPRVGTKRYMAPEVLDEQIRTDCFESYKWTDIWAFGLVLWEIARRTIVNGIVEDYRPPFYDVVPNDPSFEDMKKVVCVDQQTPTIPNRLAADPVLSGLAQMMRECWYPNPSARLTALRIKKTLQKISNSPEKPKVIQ
UniProt P32298, sequence (whole entry, looked up): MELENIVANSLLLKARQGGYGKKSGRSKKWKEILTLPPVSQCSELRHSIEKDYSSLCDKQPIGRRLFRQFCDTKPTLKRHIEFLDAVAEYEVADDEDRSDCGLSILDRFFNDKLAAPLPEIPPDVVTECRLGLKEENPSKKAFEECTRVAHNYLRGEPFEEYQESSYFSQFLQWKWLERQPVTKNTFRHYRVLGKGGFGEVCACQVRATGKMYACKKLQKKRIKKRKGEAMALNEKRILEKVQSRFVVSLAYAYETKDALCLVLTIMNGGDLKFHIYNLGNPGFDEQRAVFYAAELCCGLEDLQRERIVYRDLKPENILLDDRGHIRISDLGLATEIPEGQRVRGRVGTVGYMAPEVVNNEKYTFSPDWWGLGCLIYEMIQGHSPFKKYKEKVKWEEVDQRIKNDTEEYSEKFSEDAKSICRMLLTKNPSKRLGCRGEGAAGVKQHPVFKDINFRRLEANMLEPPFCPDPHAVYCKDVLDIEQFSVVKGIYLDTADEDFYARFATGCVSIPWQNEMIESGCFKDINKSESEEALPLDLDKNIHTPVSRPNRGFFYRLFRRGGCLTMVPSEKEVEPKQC
UniProt P31751, sequence (whole entry, looked up): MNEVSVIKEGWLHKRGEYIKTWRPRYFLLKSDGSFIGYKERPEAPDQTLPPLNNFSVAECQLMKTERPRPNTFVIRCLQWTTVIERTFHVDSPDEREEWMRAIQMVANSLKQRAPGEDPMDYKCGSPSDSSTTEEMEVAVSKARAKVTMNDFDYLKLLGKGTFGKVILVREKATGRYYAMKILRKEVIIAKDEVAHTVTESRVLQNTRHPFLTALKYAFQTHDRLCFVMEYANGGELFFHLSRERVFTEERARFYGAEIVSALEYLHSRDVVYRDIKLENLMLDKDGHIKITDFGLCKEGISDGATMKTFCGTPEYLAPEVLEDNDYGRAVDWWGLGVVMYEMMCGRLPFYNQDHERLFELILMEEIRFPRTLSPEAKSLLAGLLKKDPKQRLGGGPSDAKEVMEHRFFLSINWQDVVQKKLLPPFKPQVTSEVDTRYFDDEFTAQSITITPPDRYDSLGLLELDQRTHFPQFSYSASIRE
UniProt Q16539, sequence (whole entry, looked up): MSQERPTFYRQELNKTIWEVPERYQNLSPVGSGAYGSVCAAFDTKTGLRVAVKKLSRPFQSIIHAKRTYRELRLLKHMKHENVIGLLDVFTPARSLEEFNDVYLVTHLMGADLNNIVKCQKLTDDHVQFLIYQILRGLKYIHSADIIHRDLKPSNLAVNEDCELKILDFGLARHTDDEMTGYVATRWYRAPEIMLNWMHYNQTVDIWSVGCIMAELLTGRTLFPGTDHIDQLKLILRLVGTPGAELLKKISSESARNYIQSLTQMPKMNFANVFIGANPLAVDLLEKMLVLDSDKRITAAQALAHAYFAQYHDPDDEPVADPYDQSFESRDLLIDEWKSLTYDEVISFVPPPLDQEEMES

Study 1
Compound: CC(=O)N[C@@H](Cc1c[nH]c2ccccc12)C(=O)N[C@@H](CCC(=O)C=[N+]=[N-])C(=O)OC(C)C
For mice, MC-38 tumour rechallenge; 1 mg/kg, day 53 after injection: tumour volume read 0 mm3.
mice, MC-38 tumour rechallenge; 0.26 mg/kg, day 11 after injection — tumour volume: 0 mm3 and 4 mm3.
mouse, EL4 tumour; subcutaneous, 0.1 mg/kg, day 16 — tumour volume: 887 mm3 and 735 mm3 and 581 mm3 and 655 mm3 and 2230 mm3 and 121 mm3.
The tumour volume was 0 mm3 and 139 mm3 and 90.9 mm3 and 387 mm3 (mouse, EL4 tumour; subcutaneous, 1 mg/kg, day 14).
For mouse, EL4 tumour; subcutaneous, 1 mg/kg, day 15: tumour volume read 0 mm3 and 138 mm3 and 106 mm3.
The tumour volume was 148 mm3 and 830 mm3 and 2300 mm3 and 553 mm3 and 1230 mm3 and 614 mm3 (mouse, EL4 tumour; subcutaneous, 0.1 mg/kg, day 14).

Study 2
Compound: NCCNc1ncc(C(N)=O)c(Nc2cccc(C(F)(F)F)c2)n1
Effect on: enzyme activity
Mode: inhibitor
Tested at: 0.5 µM
Reference: control
For TLK2 (Homo sapiens, UniProt Q86UE8): remaining activity read 88.3%.
It gave 89.8% for remaining activity (PRKG2 (Homo sapiens, UniProt Q13237)).
AKT2 (Homo sapiens, UniProt P31751) — remaining activity: 90.9%.
NEK3 (Homo sapiens, UniProt P51956) — remaining activity: 93.3%.
It gave 88.3% for remaining activity (Cyclin-dependent kinase 1, with cyclin A (CDK1, Homo sapiens, UniProt P06493)).
It gave 95.6% for remaining activity (Cyclin-dependent kinase 9, with cyclin K (CDK9, Homo sapiens, UniProt P50750)).
The remaining activity was 110% (KDR (Homo sapiens, UniProt P35968)).
CDC42BPB (Homo sapiens, UniProt Q9Y5S2) — remaining activity: 107%.
The remaining activity was 96.7% (DDR2 (Homo sapiens, UniProt Q16832)).
CLK4 (Homo sapiens, UniProt Q9HAZ1) — remaining activity: 101%.
It gave 106% for remaining activity (MET (Homo sapiens, UniProt P08581)).
For MAPK14 (Homo sapiens, UniProt Q16539): remaining activity read 114%.
For CAMK4 (Homo sapiens, UniProt Q16566): remaining activity read 94.2%.
The remaining activity was 85.9% (GRK4 (Homo sapiens, UniProt P32298)).

Study 3
Cell line: normal-adjacent epithelium patient-derived organoids sample E
Technique: CellTiter-Glo
Tested at: 1 µM
Reference: DMSO
`COc1cccc2c1C(=O)c1c(O)c3c(c(O)c1C2=O)C[C@@](O)(C(=O)CO)C[C@@H]3O[C@H]1C[C@H](N)[C@H](O)[C@H](C)O1` has a viability of 35.8%.
`O=C(NCc1ccccc1)c1ccc(S(=O)(=O)NCc2ccccc2)cc1` gave a viability of 150% and 123%.
With `COc1cc(Nc2ncc3c(n2)-c2ccc(Cl)cc2C(c2c(F)cccc2OC)=NC3)ccc1C(=O)O` the viability was 33.7%.
`CCC(=N\O)/C(C)=C/c1ccc(F)cc1` gave a viability of 114% and 97.2%.
With `Cc1cc2c(-c3ccco3)cnc(N[C@H]3CCN(C)C[C@@H]3C(=O)NC3CCCCC3)c2[nH]c1=O` the viability was 108%.
For `Cc1ncc(-c2cc(Cl)ccc2F)cc1-n1c(=O)n(CC(N)=O)c2ccccc21`, the viability was 98.9% and 98.8%.
`Cl.Cl.NC1(c2ccc(-c3nc4ccn5c(=O)[nH]nc5c4cc3-c3ccccc3)cc2)CCC1` gave a viability of 96.9% and 93.4%.
`CN1CCN(Cc2cc(NC(=O)c3ccc4c(c3)CN(c3ccccc3)CC4)cc(C(F)(F)F)c2)CC1` gave a viability of 117% and 71.3%.

Study 4
Compound: CN1CCN(C(=O)c2ccc(NC(=O)Nc3ccc(N(C)c4ccnc(Nc5ccc(CS(C)(=O)=O)cc5)n4)cc3)cc2)CC1
Tested at: 1 µM
For LIM domain kinase 2 (LIMK2, Homo sapiens, UniProt P53671); binding, competition with immobilised ligand: remaining binding read 43%.
It gave 59% for remaining binding (BMX (Homo sapiens, UniProt P51813); binding, competition with immobilised ligand).
It gave 51% for remaining binding (ABL1 (Homo sapiens, UniProt P00519, F317L)).
The remaining binding was 84% (MAPKAPK5 (Homo sapiens, UniProt Q8IW41); binding).
It gave 98% for remaining binding (FYN (Homo sapiens, UniProt P06241); binding, competition with immobilised ligand).
The remaining binding was 79% (ACVRL1 (Homo sapiens, UniProt P37023); binding, competition with immobilised ligand).

Excerpt of the above (study 2):
CLK4 (Homo sapiens, UniProt Q9HAZ1) — remaining activity: 101%.
The remaining activity was 110% (KDR (Homo sapiens, UniProt P35968)).
It gave 88.3% for remaining activity (Cyclin-dependent kinase 1, with cyclin A (CDK1, Homo sapiens, UniProt P06493)).
The remaining activity was 96.7% (DDR2 (Homo sapiens, UniProt Q16832)).
It gave 106% for remaining activity (MET (Homo sapiens, UniProt P08581)).
